Measured values of several laboratories.
Lines come from different studies, so protocols differ. ± gives the spread as reported.
Chain of UniProt P01024 (whole entry, looked up): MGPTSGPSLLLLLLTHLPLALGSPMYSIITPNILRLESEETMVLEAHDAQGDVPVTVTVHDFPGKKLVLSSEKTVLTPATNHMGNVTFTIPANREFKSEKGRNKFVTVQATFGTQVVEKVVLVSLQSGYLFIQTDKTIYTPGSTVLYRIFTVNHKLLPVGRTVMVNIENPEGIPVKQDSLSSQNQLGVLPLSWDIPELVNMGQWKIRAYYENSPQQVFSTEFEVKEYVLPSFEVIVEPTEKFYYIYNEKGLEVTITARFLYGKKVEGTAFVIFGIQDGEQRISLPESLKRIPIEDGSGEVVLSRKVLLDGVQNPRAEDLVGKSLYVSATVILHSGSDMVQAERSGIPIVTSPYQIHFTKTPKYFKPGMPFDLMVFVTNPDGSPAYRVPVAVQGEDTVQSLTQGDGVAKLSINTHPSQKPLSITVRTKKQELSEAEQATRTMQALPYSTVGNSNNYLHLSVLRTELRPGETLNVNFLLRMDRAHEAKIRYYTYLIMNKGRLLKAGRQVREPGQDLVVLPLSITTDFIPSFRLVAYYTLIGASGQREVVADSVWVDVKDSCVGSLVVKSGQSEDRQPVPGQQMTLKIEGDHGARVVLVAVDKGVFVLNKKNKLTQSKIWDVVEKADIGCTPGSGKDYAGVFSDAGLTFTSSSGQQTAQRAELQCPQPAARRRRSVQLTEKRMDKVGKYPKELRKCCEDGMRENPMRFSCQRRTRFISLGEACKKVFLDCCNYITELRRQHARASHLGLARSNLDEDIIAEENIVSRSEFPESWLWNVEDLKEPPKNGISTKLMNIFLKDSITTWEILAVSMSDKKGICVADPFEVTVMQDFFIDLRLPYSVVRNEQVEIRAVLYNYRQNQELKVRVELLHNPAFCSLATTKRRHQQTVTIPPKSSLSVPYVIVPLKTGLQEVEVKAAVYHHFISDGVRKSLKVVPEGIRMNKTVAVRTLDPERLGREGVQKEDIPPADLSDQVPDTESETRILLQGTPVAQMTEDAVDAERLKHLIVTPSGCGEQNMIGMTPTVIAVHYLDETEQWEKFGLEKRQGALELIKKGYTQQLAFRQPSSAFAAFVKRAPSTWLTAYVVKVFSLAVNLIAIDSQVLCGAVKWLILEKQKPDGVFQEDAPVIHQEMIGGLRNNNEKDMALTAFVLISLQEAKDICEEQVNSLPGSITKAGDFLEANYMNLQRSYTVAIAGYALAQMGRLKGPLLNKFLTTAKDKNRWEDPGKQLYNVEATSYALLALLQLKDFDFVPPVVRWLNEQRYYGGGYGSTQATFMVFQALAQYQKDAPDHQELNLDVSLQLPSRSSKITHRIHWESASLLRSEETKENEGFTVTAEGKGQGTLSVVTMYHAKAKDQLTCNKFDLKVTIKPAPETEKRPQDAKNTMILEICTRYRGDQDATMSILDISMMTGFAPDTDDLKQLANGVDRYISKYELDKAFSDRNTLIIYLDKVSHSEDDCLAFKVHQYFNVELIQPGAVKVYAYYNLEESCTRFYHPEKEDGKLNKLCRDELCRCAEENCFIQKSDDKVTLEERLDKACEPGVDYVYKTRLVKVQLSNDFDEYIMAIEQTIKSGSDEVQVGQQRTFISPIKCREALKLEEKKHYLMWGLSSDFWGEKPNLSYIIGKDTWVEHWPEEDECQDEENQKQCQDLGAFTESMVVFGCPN
Chain of UniProt P19099 (whole entry, looked up): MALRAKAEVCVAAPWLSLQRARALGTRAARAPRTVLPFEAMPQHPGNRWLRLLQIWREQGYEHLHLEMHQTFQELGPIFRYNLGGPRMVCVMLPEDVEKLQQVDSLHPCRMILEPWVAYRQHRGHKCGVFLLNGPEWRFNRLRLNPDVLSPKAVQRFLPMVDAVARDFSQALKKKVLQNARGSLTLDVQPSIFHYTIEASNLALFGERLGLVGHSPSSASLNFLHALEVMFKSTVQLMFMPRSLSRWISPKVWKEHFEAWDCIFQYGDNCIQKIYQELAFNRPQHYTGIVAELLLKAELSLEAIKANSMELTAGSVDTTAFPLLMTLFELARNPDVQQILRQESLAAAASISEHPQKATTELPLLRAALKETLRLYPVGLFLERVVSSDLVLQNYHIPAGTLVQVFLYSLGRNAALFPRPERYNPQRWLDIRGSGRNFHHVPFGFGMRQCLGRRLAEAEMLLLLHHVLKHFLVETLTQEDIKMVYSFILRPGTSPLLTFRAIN
Chain of UniProt P43219 (whole entry, looked up): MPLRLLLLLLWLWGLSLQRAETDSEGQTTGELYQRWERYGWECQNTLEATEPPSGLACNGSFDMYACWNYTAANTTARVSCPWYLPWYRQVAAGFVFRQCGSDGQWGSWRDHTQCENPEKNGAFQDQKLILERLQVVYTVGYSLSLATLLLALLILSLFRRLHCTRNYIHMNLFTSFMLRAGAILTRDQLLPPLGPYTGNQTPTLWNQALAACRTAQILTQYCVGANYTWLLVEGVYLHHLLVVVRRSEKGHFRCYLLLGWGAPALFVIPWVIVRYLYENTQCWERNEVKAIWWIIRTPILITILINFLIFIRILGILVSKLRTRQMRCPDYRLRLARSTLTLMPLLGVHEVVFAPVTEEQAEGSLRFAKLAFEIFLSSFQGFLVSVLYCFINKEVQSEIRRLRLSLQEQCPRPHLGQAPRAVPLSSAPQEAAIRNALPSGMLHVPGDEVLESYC
Chain of UniProt P35222 (whole entry, looked up): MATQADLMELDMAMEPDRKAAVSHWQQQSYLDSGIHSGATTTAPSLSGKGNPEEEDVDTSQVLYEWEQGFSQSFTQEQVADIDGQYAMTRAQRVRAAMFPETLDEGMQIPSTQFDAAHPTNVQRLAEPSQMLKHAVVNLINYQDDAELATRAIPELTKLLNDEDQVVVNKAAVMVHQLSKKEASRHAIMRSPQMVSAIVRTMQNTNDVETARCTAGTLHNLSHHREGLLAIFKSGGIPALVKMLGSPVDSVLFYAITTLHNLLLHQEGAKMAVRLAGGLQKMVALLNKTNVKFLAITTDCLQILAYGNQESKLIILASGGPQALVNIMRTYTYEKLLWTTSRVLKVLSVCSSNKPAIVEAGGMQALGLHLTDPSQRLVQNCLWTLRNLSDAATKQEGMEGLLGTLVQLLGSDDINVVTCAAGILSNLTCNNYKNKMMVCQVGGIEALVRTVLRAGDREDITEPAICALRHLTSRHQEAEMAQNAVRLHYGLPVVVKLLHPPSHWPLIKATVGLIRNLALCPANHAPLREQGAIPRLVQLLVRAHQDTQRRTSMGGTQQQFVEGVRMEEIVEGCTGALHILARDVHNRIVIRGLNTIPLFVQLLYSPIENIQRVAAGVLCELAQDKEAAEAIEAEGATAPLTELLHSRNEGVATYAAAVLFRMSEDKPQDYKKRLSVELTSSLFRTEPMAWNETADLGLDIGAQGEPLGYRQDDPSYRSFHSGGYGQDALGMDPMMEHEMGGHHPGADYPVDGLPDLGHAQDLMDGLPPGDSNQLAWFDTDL
Chain of UniProt Q9Y294 (whole entry, looked up): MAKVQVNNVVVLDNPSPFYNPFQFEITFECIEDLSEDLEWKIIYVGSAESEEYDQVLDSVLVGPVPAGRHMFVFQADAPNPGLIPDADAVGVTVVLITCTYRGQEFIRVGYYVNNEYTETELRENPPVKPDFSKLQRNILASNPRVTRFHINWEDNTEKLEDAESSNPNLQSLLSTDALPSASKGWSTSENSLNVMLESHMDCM
Chain of UniProt Q14833 (whole entry, looked up): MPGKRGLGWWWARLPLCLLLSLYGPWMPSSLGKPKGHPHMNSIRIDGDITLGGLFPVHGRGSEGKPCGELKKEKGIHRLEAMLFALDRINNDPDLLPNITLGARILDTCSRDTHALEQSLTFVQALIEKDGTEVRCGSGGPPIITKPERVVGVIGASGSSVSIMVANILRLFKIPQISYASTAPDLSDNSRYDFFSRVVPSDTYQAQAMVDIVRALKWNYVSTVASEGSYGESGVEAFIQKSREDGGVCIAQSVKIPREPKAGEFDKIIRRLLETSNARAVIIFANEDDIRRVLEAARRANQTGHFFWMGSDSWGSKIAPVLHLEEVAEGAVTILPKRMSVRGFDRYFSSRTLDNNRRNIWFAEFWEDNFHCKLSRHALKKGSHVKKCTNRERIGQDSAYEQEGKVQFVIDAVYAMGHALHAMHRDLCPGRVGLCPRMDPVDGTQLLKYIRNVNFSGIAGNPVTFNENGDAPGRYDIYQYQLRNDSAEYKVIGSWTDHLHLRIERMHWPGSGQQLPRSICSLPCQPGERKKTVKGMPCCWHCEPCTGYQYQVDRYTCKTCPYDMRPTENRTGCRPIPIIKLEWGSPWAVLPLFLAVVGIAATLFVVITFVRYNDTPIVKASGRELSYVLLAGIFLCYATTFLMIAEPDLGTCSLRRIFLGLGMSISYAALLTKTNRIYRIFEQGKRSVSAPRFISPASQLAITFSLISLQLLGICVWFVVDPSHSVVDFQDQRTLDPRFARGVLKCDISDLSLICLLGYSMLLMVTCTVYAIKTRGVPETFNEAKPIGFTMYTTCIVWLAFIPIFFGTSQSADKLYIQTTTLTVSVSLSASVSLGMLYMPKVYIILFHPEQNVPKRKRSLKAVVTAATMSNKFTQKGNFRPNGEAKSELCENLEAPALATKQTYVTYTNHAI
Chain of UniProt Q05097 (whole entry, looked up): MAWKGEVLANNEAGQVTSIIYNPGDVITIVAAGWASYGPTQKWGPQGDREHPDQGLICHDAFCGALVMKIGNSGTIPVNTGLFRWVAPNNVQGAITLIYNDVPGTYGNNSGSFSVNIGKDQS

SMILES | target | test | test system | conditions | endpoint | result
C[C@]12CC[C@H]3[C@@H](CCC4=CC(=O)CC[C@@]43C)[C@@H]1CC[C@@H]2C(=O)CO | CYP11B2 (Homo sapiens, UniProt P19099) | binding, spectral titration | – | CYP11B2 1 µM, together with: adrenodoxin 40-fold | maximal absorbance change | 0.096
CC[C@H](C)[C@H](NC(C)=O)C(=O)N[C@H]1CSSC[C@@H](C(=O)N[C@H](C(N)=O)[C@@H](C)O)NC(=O)[C@H](CCCNC(=N)N)NC(=O)[C@H](Cc2c[nH]cn2)NC(=O)[C@H](C)NC(=O)CNC(=O)[C@H](Cc2c[nH]c3ccccc23)NC(=O)[C@H](CC(=O)O)NC(=O)[C@H](CCC(N)=O)NC(=O)[C@H](Cc2ccc(OC)cc2)NC(=O)[C@H](C(C)C)NC1=O | Complement C3, C3b fragment (Homo sapiens, UniProt P01024) | SPR | – | pH 7.4, 25 °C | kon | 700000 ± 50000 M⁻¹ s⁻¹
COc1cc(C2CC(=O)Nc3nc(N)[nH]c(=O)c32)ccc1O (stereo not shown) | uncharacterized protein (Leishmania donovani, UniProt A0A3Q8IA09) | glutamine hydrolysis, inhibitor | – | 100 µM, together with: glutamine substrate | kcat/Km | 0.0158 M⁻¹ s⁻¹
O=C(COCCCCc1ccccc1)N[C@@H](Cc1cn(CCNC(=O)c2ccc(S[C@@H]3O[C@H](CO)[C@H](O)[C@H](O)[C@H]3O)cc2)nn1)C(=O)NCCO | lecA (Pseudomonas aeruginosa, UniProt Q05097) | isothermal titration calorimetry | – | concentration not given | binding stoichiometry | 0.8 ± 0.1
COc1ccc(S(=O)(=O)N2CCN(CC(=O)Nc3ccc(OC)cc3OC)C(=O)C2)cc1 | GRM4 (Homo sapiens, UniProt Q14833) | calcium mobilization, positive allosteric modulator | CHO cells expressing Gqi5 | together with: glutamate EC20 | EC50 | inactive
CC[C@H](C)[C@H](NC(=O)[C@H](CCCNC(=N)N)NC(=O)[C@H](CCCNC(=N)N)NC(=O)[C@H](C)NC(=O)[C@H](CC(C)C)NC(=O)[C@H](CCCNC(=N)N)NC(=O)[C@H](C)NC(=O)[C@H](Cc1c[nH]c2ccccc12)NC(=O)[C@H](CCCCN)NC(=O)[C@H](CCC(=O)O)NC(C)=O)C(=O)N[C@@H](C)C(=O)NCC(N)=O | Histone chaperone ASF1A (Homo sapiens, UniProt Q9Y294) | isothermal titration calorimetry | – | concentration not given, pH 7.5, 20 °C | binding stoichiometry | 1.1 ± 0.2
CC1CCCN(CCCNC(=O)C2=Cc3sc4c(c3CS2)CCCC4)C1 (stereo not shown) | Catenin beta-1, with BCL9 (CTNNB1, Homo sapiens, UniProt P35222) | BCL9 co-immunoprecipitation, inhibitor, co-immunoprecipitation | COLO 320 and HCT-116 | 16 h | IC50 | 1000 nM
Oc1c(C(Nc2nc3ccccc3s2)c2cccc(OCc3ccccc3)c2)ccc2cccnc12 (stereo not shown) | Genome polyprotein, NS2B-NS3 protease (Dengue virus type 2, UniProt P14340) | substrate, tetrapeptide cleavage | – | 3 µM, 37 °C, together with: 40 µM ZnCl2 | kcat | 0.0956 ± 0.0022 s⁻¹
CC[C@H](C)[C@H](NC(=O)[C@H](CO)NC(=O)[C@H](Cc1ccc(O)cc1)NC(=O)[C@H](CC(=O)O)NC(=O)[C@H](CO)NC(=O)[C@@H](NC(=O)[C@H](Cc1ccccc1)NC(=O)[C@@H](NC(=O)CNC(=O)[C@@H]1CCCN1C(=O)[C@H](C)NC(=O)[C@@H](N)Cc1ccc(O)cc1)[C@@H](C)O)[C@@H](C)CC)C(=O)N[C@@H](C)C(=O)N[C@@H](CCSC)C(=O)N[C@@H](CC(=O)O)C(=O)N[C@@H](CCCCN)C(=O)N[C@H](C(=O)N[C@@H](CCCNC(=N)N)C(=O)N[C@@H](CCC(N)=O)C(=O)N[C@@H](CCC(N)=O)C(=O)N[C@@H](CC(=O)O)C(=O)N[C@@H](Cc1ccccc1)C(=O)N[C@H](C(=O)N[C@@H](CC(N)=O)C(=O)N[C@@H](Cc1c[nH]c2ccccc12)C(=O)N[C@@H](CC(C)C)C(=O)N[C@@H](CC(C)C)C(=O)N[C@@H](C)C(=O)N[C@@H](CCC(N)=O)C(=O)N[C@@H](CCCNC(=N)N)C(=O)NCC(=O)N[C@@H](CCCCN)C(=O)N[C@@H](CCCCN)C(=O)N[C@@H](CO)C(=O)N[C@@H](CC(=O)O)C(=O)N[C@@H](Cc1c[nH]c2ccccc12)C(=O)N[C@@H](CCCCN)C(=O)N[C@@H](Cc1c[nH]cn1)C(=O)N[C@@H](CC(N)=O)C(=O)N[C@H](C(=O)N[C@H](C(=O)N[C@@H](CCC(N)=O)C(=O)O)[C@@H](C)O)[C@@H](C)CC)C(C)C)[C@@H](C)CC | Gastric inhibitory polypeptide receptor (Rattus norvegicus, UniProt P43219) | cAMP, agonist | COS-7 | – | Emax | 61%
CC1(C)CCN(Cc2ccc(C(=O)NC[C@]3(O)CCCN(c4cc(NCc5ccccc5)ncn4)C3)c(O)c2)CC1 | FLT3 (Homo sapiens, UniProt P36888, D835Y) | kinase activity, radiometric | – | 10 µM, together with: 10 µM ATP | remaining activity | 68%
